Experimental data collected from several papers.
Compare with care: the assays were run in different laboratories. ± gives the spread as reported.

Structure (SMILES) | assay | system | conditions | measurement | value
CC(C)(C)c1cc(-n2nc3ccccc3n2)c(O)c(C(C)(C)C)c1 | exposure assessment | human, age 1-2 years | sunscreen | mean daily dermal uptake | 2.43 ng/kg body weight/day
O=C(NCCN1CCCC1)c1cc(-c2ccc(CN3CCOCC3)cc2)nc2ccc(F)cc12 | – | NMRI mouse Plasmodium berghei-infected, blood | oral, 0.6 mg/kg, 24 h, monotherapy | concentration at 24 h | 11 nM
CN1CC[C@@H](c2c(O)cc(O)c3c(=O)cc(-c4ccc(C(F)(F)F)cc4Cl)oc23)[C@@H]1CO | refers to: Epistaxis | B-cell malignancies or AML | oral, 50 mg, continuous dosing | patients with adverse event | 0%
O.O.O.O.O.O.[Cl-].[Cl-].[Co+2] | – | rat female, urine | oral, 10 mg/kg single, day 2 | cobalt in urine | 411 µg/L
O=S(=O)(Nc1ccccc1)c1ccc(NC(=S)Nc2ccccc2)cc1 | refers to: Ca | male mouse, blood | oral, 5 mg/kg daily, 14 days | blood chemistry level | 10.1 mg/dL
CC[C@H](C)[C@H](NC(=O)[C@H](Cc1ccccc1)NC(=O)[C@H](CCC(=O)O)NC(=O)[C@H](CCCNC(=N)N)NC(=O)[C@H](C)NC(=O)[C@H](C)NC(=O)[C@H](CCC(N)=O)NC(=O)[C@H](CCC(=O)O)NC(=O)[C@H](CCC(=O)O)NC(=O)[C@H](CC(C)C)NC(=O)[C@H](Cc1ccc(O)cc1)NC(=O)[C@H](CO)NC(=O)[C@H](CO)NC(=O)[C@@H](NC(=O)[C@H](CC(=O)O)NC(=O)[C@H](CO)NC(=O)[C@@H](NC(=O)[C@H](Cc1ccccc1)NC(=O)[C@@H](NC(=O)CNC(=O)[C@H](CCC(=O)O)NC(=O)[C@H](C)NC(=O)CCc1cnc[nH]1)[C@@H](C)O)[C@@H](C)O)C(C)C)C(=O)N[C@@H](C)C(=O)N[C@@H](Cc1c[nH]c2ccccc12)C(=O)N[C@@H](CC(C)C)C(=O)N[C@H](C(=O)N[C@@H](CCCNC(=N)N)C(=O)NCC(=O)N[C@@H](CCCNC(=N)N)C(=O)N[C@@H](CCCCNC(=O)COCCOCCNC(=O)COCCOCCNC(=O)CC[C@H](NC(=O)CCCCCCCCCCCCCCCCC(=O)O)C(=O)O)C(=O)NCC(=O)NCC(=O)N[C@@H](CO)C(=O)N[C@@H](CCSC)C(=O)N[C@H](C(=O)N[C@@H](CCCCNc1c(NCCCCCN(O)C(=O)CCC(=O)NCCCCCN(O)C(=O)CCC(=O)NCCCCCN(O)C(C)=O)c(=O)c1=O)C(=O)O)C(C)C)C(C)C [zirconium-89 labelled] | ex vivo gamma counting | male Sprague-Dawley rats, muscle | intravenous, 1 nmol, 24 h, mean of 3 animals | tissue uptake | 0.072 %ID/g
Cn1c(-c2ccc(C(N)=O)cc2F)nnc1C(C)(C)Oc1c(F)cc(Cl)cc1F | – | human | oral, 3 mg, single ascending dose | medical device site reaction TEAE | 16.7%
COc1ccc(-c2c(-c3ccc(C#N)c(F)c3)nc(N3CCC(N)CC3)n(C)c2=O)cc1F | refers to: Dysgeusia | neuroendocrine neoplasm patients | oral, 60 mg, any grade, dose expansion | treatment-related adverse event incidence | 13%
C[C@@H]1NC(=O)[C@H](CCCCNC(=O)CO/N=C/C(=O)NCCCC[C@@H]2NC(=O)[C@@H](Cc3ccccc3)NC(=O)[C@H](CC(=O)O)NC(=O)CNC(=O)[C@H](CCCNC(=N)N)NC2=O)NC(=O)CNC(=O)[C@@H]2CCCN2C(=O)[C@H](CCCCNC(=O)CO/N=C/C(=O)NCCCC[C@@H]2NC(=O)[C@@H](Cc3ccccc3)NC(=O)[C@H](CC(=O)O)NC(=O)CNC(=O)[C@H](CCCNC(=N)N)NC2=O)NC(=O)[C@H](CCCCNC(=O)CCNC(=O)CCNC(=O)CCNC(=O)[C@H](CCCCN)NC(=O)[C@H](Cc2ccccc2)NC(=O)CNC(=O)CN2CCCNCCNCCCNCC2)NC(=O)[C@H](CCCCNC(=O)CO/N=C/C(=O)NCCCC[C@@H]2NC(=O)[C@@H](Cc3ccccc3)NC(=O)[C@H](CC(=O)O)NC(=O)CNC(=O)[C@H](CCCNC(=N)N)NC2=O)NC(=O)CNC(=O)[C@@H]2CCCN2C(=O)[C@H](CCCCNC(=O)CO/N=C/C(=O)NCCCC[C@@H]2NC(=O)[C@@H](Cc3ccccc3)NC(=O)[C@H](CC(=O)O)NC(=O)CNC(=O)[C@H](CCCNC(=N)N)NC2=O)NC1=O [copper-64 labelled] | – | normal mice, stomach | intravenous, 0.74 MBq, 3 h post-injection | tissue uptake | 2.05 ± 0.33 %ID/g
COc1cc2c(Oc3ccc4[nH]c(C)cc4c3F)ccnc2cc1OCC1(N)CC1 | – | paediatric recurrent refractory sarcoma | 8 mg/kg | grade 3 sinus tachycardia | 0%
O=C1Nc2cc3[nH]nc(-c4ccncc4)c3cc2CN1Cc1ccccc1 | refers to: Hypokalemia | patients with advanced solid tumours | intravenous, dose not given, schedules 1 and 2 | patients with grade ≥3 TEAE | 6%
CCc1ccc(CC/C=C/c2ccc3c(c2)C(=O)CC3)cc1 | – | Sprague-Dawley rat, male, blood | oral, 120 mg/kg/day, 14 days | hematocrit | 46.8%
C[C@H]1CN(C(=O)CC#N)[C@]12CCN(c1ncnc3[nH]ccc13)C2 | – | minipig, male | dermal, 20 mg/kg repeated, 9 months | AUC at NOAEL | 149 ng·h/mL

For quick reference, copied from above:
Structure (SMILES) | assay | system | conditions | measurement | value
O=C(NCCN1CCCC1)c1cc(-c2ccc(CN3CCOCC3)cc2)nc2ccc(F)cc12 | – | NMRI mouse Plasmodium berghei-infected, blood | oral, 0.6 mg/kg, 24 h, monotherapy | concentration at 24 h | 11 nM
